Measurements from different studies.
Protocols differ between the studies behind these lines. Several values in a cell are separate wells, animals, samples, runs or records. Numbers after ± are the reported error.

N=c1c2c(-c3ccccc3)c(-c3ccccc3)n(Cc3ccccc3)c2ncn1[C@H]1CC[C@H](O)CC1
CL as % of hepatic blood flow (cynomolgus monkey, male, plasma; intravenous, 0.5 mg/kg): < 5%

Cn1c(-c2ccc(C(N)=O)cc2F)nnc1C(C)(C)Oc1c(F)cc(Cl)cc1F
gastrointestinal disorder TEAE (human; oral, 1 mg, single ascending dose): 16.7%

CC[C@H](C)[C@H](NC(=O)[C@H](CC(C)C)NC(=O)[C@H](Cc1c[nH]c2ccccc12)NC(=O)[C@H](CCC(N)=O)NC(=O)[C@@H](NC(=O)[C@H](Cc1ccccc1)NC(=O)[C@H](C)NC(=O)[C@H](CCCCNC(=O)COCCOCCNC(=O)COCCOCCNC(=O)CC[C@H](NC(=O)CCCCCCCCCCCCCCCCCCC(=O)O)C(=O)O)NC(=O)[C@H](CCC(N)=O)NC(=O)[C@H](C)NC(=O)[C@@H](NC(=O)[C@H](CCCCN)NC(=O)[C@H](CC(=O)O)NC(=O)[C@H](CC(C)C)NC(=O)C(C)(C)NC(=O)[C@@H](NC(=O)[C@H](CO)NC(=O)[C@H](Cc1ccc(O)cc1)NC(=O)[C@H](CC(=O)O)NC(=O)[C@H](CO)NC(=O)[C@@H](NC(=O)[C@H](Cc1ccccc1)NC(=O)[C@@H](NC(=O)CNC(=O)[C@H](CCC(=O)O)NC(=O)C(C)(C)NC(=O)[C@@H](N)Cc1ccc(O)cc1)[C@@H](C)O)[C@@H](C)O)[C@@H](C)CC)[C@@H](C)CC)C(C)C)C(=O)N[C@@H](C)C(=O)NCC(=O)NCC(=O)N1CCC[C@H]1C(=O)N[C@@H](CO)C(=O)N[C@@H](CO)C(=O)NCC(=O)N[C@@H](C)C(=O)N1CCC[C@H]1C(=O)N1CCC[C@H]1C(=O)N1CCC[C@H]1C(=O)N[C@@H](CO)C(N)=O
peak-to-trough ratio (human, plasma; subcutaneous, 10 mg group, week 8, geometric mean; relative to: peak over trough concentration): 2.07

CC(C)[C@@H]1NC(=O)CNC(=O)[C@H](CC(N)=O)NC(=O)[C@H](CCCNC(=N)N)NC(=O)[C@H](Cc2ccc(O)cc2)NC(=O)[C@H](C(C)C)NC(=O)[C@@H](NC(=O)[C@@H](NC(=O)[C@H](CC(N)=O)NC(=O)[C@H](Cc2c[nH]c3ccccc23)NC(=O)[C@H](C)NC(=O)[C@H](Cc2ccccc2)NC(=O)CN)C(C)C)CSSC[C@@H](C(=O)N[C@@H](Cc2cnc[nH]2)C(=O)N[C@@H](CCCNC(=N)N)C(=O)N[C@@H](CCCNC(=N)N)C(=O)N[C@@H](C)C(=O)N[C@@H](CC(N)=O)C(N)=O)NC(=O)[C@H](C(C)C)NC(=O)[C@H](CCCNC(=N)N)NC1=O
glucose (ICR mouse, blood; intramammary, 10 mg/kg, day 5, 3 d dosing): 1.52 ± 0.06 mmol/L

CC(C)(c1ccccc1)c1cc(-n2nc3ccccc3n2)c(O)c(C(C)(C)c2ccccc2)c1
daily dermal uptake, percentile (exposure assessment; human, age 21-60 years; concentration not given, cream, 95th percentile): 4.88 ng/kg body weight/day

CCCCCCCCCCCCCCCC(=O)N[C@@H](CCC(=O)NCCCC[C@H](NC(=O)[C@H](CC(=O)O)NC(=O)[C@H](CO)NC(=O)[C@@H](NC(=O)[C@H](Cc1ccccc1)NC(=O)[C@@H](NC(=O)CNC(=O)[C@H](CCC(N)=O)NC(=O)[C@H](CO)NC(=O)[C@@H](N)Cc1c[nH]cn1)[C@@H](C)O)[C@@H](C)O)C(=O)N[C@@H](CO)C(=O)N[C@@H](CCC(=O)O)C(=O)N[C@@H](Cc1ccc(O)cc1)C(=O)N[C@@H](CC(C)C)C(=O)N[C@@H](CC(=O)O)C(=O)N[C@@H](CO)C(=O)N[C@@H](CCC(=O)O)C(=O)N[C@@H](CCCNC(=N)N)C(=O)N[C@@H](C)C(=O)N[C@@H](CCCNC(=N)N)C(=O)N[C@@H](CC(=O)O)C(=O)N[C@@H](Cc1ccccc1)C(=O)N[C@H](C(=O)N[C@@H](C)C(=O)N[C@@H](Cc1c[nH]c2ccccc12)C(=O)N[C@@H](CC(C)C)C(=O)N[C@@H](CCC(=O)O)C(=O)N[C@@H](C)C(=O)NCC(=O)NCC(=O)O)C(C)C)C(=O)O
injection site bruising (human, CrCl ≥30 to <45 mL/min; sc, 100 µg single dose): 0%

CO[C@H]1C[C@@H]2CC[C@@H](C)[C@@](O)(O2)C(=O)C(=O)N2CCCC[C@H]2C(=O)O[C@H]([C@H](C)C[C@@H]2CC[C@@H](OC(=O)NCCOCCOCCOCCOCCOCCOCCOCCOCCC(=O)N3CCc4cc(Cn5nc(-c6ccc7oc(N)nc7c6)c6c(N)ncnc65)ccc4C3)[C@H](OC)C2)C[C@@H](O)[C@H](C)/C=C(\C)[C@@H](O)[C@@H](OC)C(=O)[C@H](C)C[C@H](C)/C=C/C=C/C=C/1C
AEs causing dose modification (phase 1 dose escalation; advanced solid tumour patients; intravenous, 6 mg weekly, any grade): 66.7%

C=CC(=O)Nc1cc(Nc2nccc(Nc3cc(Cl)c(F)cc3C(C)(C)O)n2)c(OC)cc1N1CC[C@@H](N(C)C)C1
patients with dizziness (human patients; oral, 50 mg, treatment-emergent adverse events): 0%

Clc1ccc(C(c2ccccc2Cl)C(Cl)Cl)cc1 (stereo not drawn)
time to plasma concentration below 2 mg/L (human; dose not given): > 3 months

CC1CCCN(CCCNC(=O)c2cc(Sc3ccc(F)cc3)nc3ccccc23)C1 (stereo not drawn)
cytotoxicity efficacy (Vero-E6; CellTiter-Glo ATP; concentration not given, 72 h, first round 5-point; relative to: DMSO 0%, hyamine -100%, more negative, more toxic): 0%

Cc1cc(C)c(CNC(=O)c2cc(Cl)c3c(c2C)O[C@@](C)([C@H]2CC[C@H](N(C)C)CC2)O3)c(=O)[nH]1
Neutropenia incidence (human, relapsed/refractory NHL; concentration not given, treatment-related TEAEs, grade 5): 0%

CC(C)C[C@H](NC(=O)[C@H](CCCCN)NC(=O)OCC1c2ccccc2-c2ccccc21)C(=O)N[C@H](C(=O)N[C@@H](Cc1ccccc1)C(=O)N[C@@H](Cc1ccccc1)C(=O)N[C@@H](CCCCN)C(=O)NCC(=O)N[C@@H](Cc1ccccc1)C(=O)N[C@@H](C)C(=O)N[C@@H](Cc1c[nH]c2ccccc12)C(=O)N[C@@H](CC(N)=O)C(=O)N[C@H](C(=O)N[C@H]1CSSC[C@@H](C(=O)N[C@@H](Cc2c[nH]cn2)C(=O)N[C@@H](CCCNC(=N)N)C(=O)N[C@@H](CCCNC(=N)N)C(=O)N[C@@H](C)C(=O)N[C@@H](CC(N)=O)C(N)=O)NC(=O)[C@H](C(C)C)NC(=O)[C@H](CCCNC(=N)N)NC(=O)[C@H](C(C)C)NC(=O)CNC(=O)[C@H](CC(N)=O)NC(=O)[C@H](CCCNC(=N)N)NC(=O)[C@H](Cc2ccc(O)cc2)NC(=O)[C@H](C(C)C)NC1=O)C(C)C)C(C)C
peptide remaining (HPLC; trypsin buffer; 4.00 h, 37 °C, with: trypsin 1 % w/v): 49.2% and 51.6% and 49%

CCC[C@@](N)(CO)CCc1ccc(OCCCCCC(C)C)cc1
AUC(0-inf) (dog, male hounds, plasma; oral capsule, 15 mg/kg, geometric mean): 16.9 µM·h

CC1(C)C(/C=C(\Cl)C(F)(F)F)C1C(=O)OC(C#N)c1cccc(Oc2ccccc2)c1 (stereo not drawn)
enzyme contribution to clearance (measured: CYP2C19; human, age 5 years): 0.5%

C=CC(=O)N1CC[C@H](n2nc(C#Cc3cc(OC)cc(OC)c3)c3c(N)ncnc32)C1
adverse drug reaction incidence (patients with advanced solid tumours; oral, dose not given, Diarrhea, any grade, QD, with: lanthanum carbonate hydrate): 29.2%

CC(C)C(=O)OC[C@H]1O[C@@H](n2ccc(NO)nc2=O)[C@H](O)[C@@H]1O
bench-top stability (rat maternal placenta dialysate; 250 ng/mL, 6 h, room temperature, high concentration, with: NHC 1000 ng/mL): 98.9 ± 3%

C#C[C@]1(O)CC[C@H]2[C@@H]3CCc4cc(O)ccc4[C@H]3CC[C@@]21C
uptake (zebrafish AB embryos and larvae; 24 h): < 5%

CN1CC[C@@H](c2c(O)cc(O)c3c(=O)cc(-c4ccc(C(F)(F)F)cc4Cl)oc23)[C@@H]1CO
adverse event incidence (measured: Diarrhea; relapsed or refractory haematological malignancies; oral, dose not given, grade ≥3): 2.5%

CC(C)n1c(C2CCNCC2)nc2c([N+](=O)[O-])c(Br)c(Br)cc21
adverse events causing discontinuation (measured: Asthenia; AML patients; 125 mg): 2%

Clc1cc2c(cc1Cl)Oc1c(ccc(Cl)c1Cl)O2
final permeate concentration (ultrafiltration; cow milk whey; 2000 nM nominal in whole milk): 6.68 nM

O=c1ccc2ncc(=O)n3c2n1C[C@H]3CN1CCC(NCc2cc3c(cn2)OCCC3)CC1
AUC(0-t) (healthy human volunteers, plasma; oral, dose not given, arithmetic mean, with: rifampicin): 9800 ng·h/mL

C=CCNc1c(O)cc2c(O)c1C[C@@H](C)C[C@H](OC)[C@H](O)[C@@H](C)/C=C(\C)[C@H](OC(N)=O)[C@@H](OC)/C=C\C=C(/C)C(=O)N2
patients with constipation TEAE (unresectable or metastatic STS, GIST, other; intravenous, 90 mg/m^2): 17%

C[C@@H](NC(=O)N1C(=O)[C@H](Cc2ccnc(N)c2)[C@H]1C(=O)O)C1CCCCC1
incidence of grade 3 or higher AEs (healthy adult Chinese volunteers; continuous intravenous infusion, 1.0 mg/kg/h, 5-day infusion, CTCAE 5.0 grading): 0%

O=C1Nc2cc3[nH]nc(-c4ccncc4)c3cc2CN1Cc1ccccc1
patients with constipation (CTCAE v4.03; advanced solid tumour patients; intravenous, 4.8 mg/kg, schedules 1/2): 0%

COc1cc2c(Oc3ccc4[nH]c(C)cc4c3F)ccnc2cc1OCC1(N)CC1
grade 1 or 2 Appendicitis (paediatric recurrent refractory sarcoma; 10 mg): 0%

C[C@]1(CO)Cc2ncn(-c3ccc(C#N)c(Cl)c3)c2C(=O)O1
drug-related dysgeusia (healthy European subjects; dose not given, single dose, all doses): 2.1%

O=C(Nc1ccccc1)C1CCN(C(=O)Oc2cccnc2)CC1
subjects with adverse event (measured: musculoskeletal disorders; healthy women; oral, 100 mg, 9 days): 7.7%

CC(C)(Nc1nc(N2CCNCC2)nc2ccccc12)c1ccccc1
cytotoxicity efficacy (Vero-E6; CellTiter-Glo ATP; concentration not given, 72 h, second round 5-point; relative to: DMSO 0%, hyamine -100%, more negative, more toxic): -10.9%

CC(=O)c1c(C)c2cnc(Nc3ccc(C4CCN(CCS(C)(=O)=O)CC4)cn3)nc2n(C2CCCC2)c1=O
patients with ALT increased (HR+/HER2- advanced breast cancer patients; oral, 100 mg twice daily, grade 3/4,, monotherapy): 0%

O=[Se](=O)([O-])[O-].[Na+].[Na+]
half-life (rat; subcutaneous, 0.04 mg/kg): 4.21 h

Repeated from above:
CC(C)C(=O)OC[C@H]1O[C@@H](n2ccc(NO)nc2=O)[C@H](O)[C@@H]1O
bench-top stability (rat maternal placenta dialysate; 250 ng/mL, 6 h, room temperature, high concentration, with: NHC 1000 ng/mL): 98.9 ± 3%

C#C[C@]1(O)CC[C@H]2[C@@H]3CCc4cc(O)ccc4[C@H]3CC[C@@]21C
uptake (zebrafish AB embryos and larvae; 24 h): < 5%
